Results collected from several papers.
Protocols differ between the studies behind these lines. ± marks the error that the study gave.
Cell line: MDCK

Structure (SMILES) | test | conditions | CC50
C1C2C1C1C3C4C5C6CC6C4C14CNCC54C23 (stereo not drawn) | – | 3 (unit not given) | 40 µM
COc1cc(-c2oc3cc(O[C@@H]4O[C@@H](C)[C@H](O)[C@@H](O)[C@H]4O)cc(O)c3c(=O)c2O[C@@H]2O[C@H](CO)[C@@H](O)[C@H](O)[C@H]2OC(=O)c2cc(O)c(O)c(O)c2)ccc1O | MTT | 48 h | > 133 µM
COc1ccc(CNC23CC4CC(CC(C4)C2)C3)c(O)c1 | – | – | 49.9 ± 12.3 µM
COc1cc(-c2oc3cc(O)cc(O)c3c(=O)c2O[C@@H]2O[C@H](CO)[C@@H](O)[C@H](OC(C)=O)[C@H]2O)ccc1O | MTT | 48 h | > 192 µM
CCN(CC)CC#CCO[C@H]1CC[C@H](O)[C@@H]2[C@H]1[C@H]1C[C@@H]3[C@@]4(C)CCC[C@@](C)(C(=O)OC)[C@@H]4CC[C@@]23C=C1C(C)C | cytotoxicity, MTT | 48 h | 92 µM
COc1cc(-c2oc3cc(O)cc(O)c3c(=O)c2O[C@@H]2O[C@H](CO[C@@H]3O[C@@H](C)[C@H](O)[C@@H](O)[C@H]3O)[C@@H](O)[C@H](OC(C)=O)[C@H]2O)ccc1O | MTT | 48 h | > 150 µM
CCN(CC)CC#CCOC(=O)[C@]1(C)CCC[C@@]2(C)[C@H]1CC(C=O)=C1C=C(C(C)C)CC[C@@H]12 | cytotoxicity, MTT | 48 h | 718 µM
CCN(CC)CCCC(=O)O[C@@H]1C[C@@H]2CC[C@@]1(C)C2(C)C | cell growth or viability, MTT | 48 h | 34 µM
CCOC(=O)c1cnn2c1NN=C([N+](=O)[O-])C2(O)CC (stereo not drawn) | MTT | 48 h | 1060 ± 55 µM
CC(C)C1=CC2=C(C=O)C[C@@H]3[C@](C)(CCC[C@@]3(C)C(=O)OCC#CCN3CCOCC3)[C@H]2CC1 | cytotoxicity, MTT | 48 h | 19.8 µM
CN(C)CC(=O)O[C@@H]1C[C@@H]2CC[C@@]1(C)C2(C)C | cell growth or viability, MTT | 48 h | 597 µM
Cc1cc(-c2ccccc2)n2nc(C(=O)Nc3sc4c(c3C(N)=O)CCCCC4)nc2n1 | MTT | 48 h | > 250 µM
CCC1(O)C([N+](=O)[O-])=NNc2ncnn21 (stereo not drawn) | MTT | 48 h | 742 ± 51 µM
c1nc(N2CCCCC2)ncc1CNC12CC3CC(CC(C3)C1)C2 | MTT | – | 33.9 µM
CC(C)C1=C[C@@]23CC[C@@H]4[C@](C)(CCC[C@@]4(C)C(=O)NCC#CCN4CCCNCC4)[C@H]2C[C@@H]1C1=C3C(=O)C=CC1=O | cytotoxicity, MTT | 48 h | 18 µM
OC12CC3CC(C1)CC(NCc1cnc(N4CCCCC4)nc1)(C3)C2 | MTT | – | > 300 µM
COC(=O)c1c(C)[nH]c2c3c(c(O)c(CN4CCOCC4)c12)[C@H]1C[C@@H]2[C@@]4(C)CCC[C@@](C)(C(=O)OC)[C@@H]4CC[C@@]32C=C1C(C)C | cytotoxicity, MTT | 48 h | 40 µM
Cc1cc(O)cc2c1C(=O)c1c(O)cccc1C2=O | cell growth or viability, crystal violet | 72 h | > 100 µM
CN(C)CCC(=O)O[C@@H]1C[C@@H]2CC[C@@]1(C)C2(C)C | cell growth or viability, MTT | 48 h | > 1180 µM
COc1ccc(CNc2ccc(C34CC5CC(CC(C5)C3)C4)cc2)c(O)c1 | – | – | > 100 µM
CC(C)c1ccc2c(c1)CC[C@H]1[C@](C)(C(=O)OCC#CCN3CCCC3)CCC[C@]21C | cytotoxicity, MTT | 48 h | 30.7 µM
CCOC(=O)c1nc2n(n1)C(O)(CC)C([N+](=O)[O-])=NN2 (stereo not drawn) | MTT | 48 h | > 1060 µM
CCN(CC)CC#CCOC(=O)[C@]1(C)CCC[C@]2(C)[C@H]3C[C@H]4C(C(C)C)=C[C@]3(CC[C@H]21)[C@@H]1C(=O)OC(=O)[C@@H]14 | cytotoxicity, MTT | 48 h | 77 µM
CCOC(=O)c1cnn2c1NN=C([N+](=O)[O-])C2(C)O (stereo not drawn) | MTT | 48 h | 139 ± 11 µM
CC(C)C1=C[C@@]23CC[C@@H]4[C@](C)(CCC[C@@]4(C)C(=O)OCC#CCN4CCOCC4)[C@H]2C[C@@H]1[C@H]1C(=O)OC(=O)[C@H]13 | cytotoxicity, MTT | 48 h | 20 µM
CCOC(=O)c1nc2n(n1)C(C)(O)C([N+](=O)[O-])=NN2 (stereo not drawn) | MTT | 48 h | 371 ± 22 µM
COc1cc(-c2oc3cc(O)cc(O)c3c(=O)c2O[C@@H]2O[C@H](CO)[C@@H](O)[C@H](O)[C@H]2OC(=O)c2cc(O)c(O)c(O)c2)ccc1O | MTT | 48 h | > 159 µM
